{"data": "Measured values from different studies", "note": "Each numbered part is a random draw from the data of one study; scales do not carry over between parts. Positions count from the first letter of the parent shown."}
{"data": "Series 1", "target": "Ras GTPase-activating protein-binding protein 1, C-terminal RGG region (G3BP1, Homo sapiens, UniProt Q13283)", "technique": "RNA Bind-n-Seq", "form": "RNA", "matrix": "in vitro", "concentration": "1 µM", "setting": "whole 134-nt RNA, ends assumed", "with": "150 mM KCl", "relative to": "input library", "direction": "higher = stronger binding", "shared flanks, not repeated": "GGGAGUUCUACAGUCCGACGAUC … UGGAAUUCUCGGGUGUCAAGG", "sequence of UniProt Q13283 (whole entry, looked up)": "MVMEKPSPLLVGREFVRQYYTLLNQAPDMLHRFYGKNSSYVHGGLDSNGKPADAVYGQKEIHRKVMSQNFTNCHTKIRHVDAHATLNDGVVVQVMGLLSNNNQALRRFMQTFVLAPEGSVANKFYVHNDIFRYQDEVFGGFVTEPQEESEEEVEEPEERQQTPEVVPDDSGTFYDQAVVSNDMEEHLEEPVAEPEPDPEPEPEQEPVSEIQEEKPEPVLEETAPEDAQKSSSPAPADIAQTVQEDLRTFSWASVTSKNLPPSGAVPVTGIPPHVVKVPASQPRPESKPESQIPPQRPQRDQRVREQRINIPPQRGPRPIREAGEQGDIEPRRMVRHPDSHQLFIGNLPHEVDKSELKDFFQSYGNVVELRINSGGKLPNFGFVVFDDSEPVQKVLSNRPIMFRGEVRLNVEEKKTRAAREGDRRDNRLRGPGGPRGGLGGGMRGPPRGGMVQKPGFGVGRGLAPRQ"}
{"Strand": "ACCAUGCAGGUGGGCAUCAAAGGGAAGUGGGGCAAGGGGGGGAUAGGGAGGGGGGUAACACUUUGGGAACAGGUGGUCCCAGGUCGUUUC", "log2 enrichment": -1.46}
{"Strand": "AGUCCUGUGCUACACAUCGUAUGUACCGAAUCGGGUUUUUGGGUGGGUUUUUUUGGGAAAGUAUUAUGUUACGCCGUUCGGAUCUGCACU", "log2 enrichment": 0.718}
{"Strand": "UCCUGUGCUACACAUCGUAUGUACCGAAUCGGGGUUUUUGGGGUUUUUUUGGGGAGGGGAAAGUAUUAUGUUACGCCGUUCGGAUCUGCA", "log2 enrichment": 1.58}
{"Strand": "AAGUCCUGUGCUACACAUCGUAUGUACCGAAUCGGGUUUUUUUGGGAGGGUUUGGGAAAGUAUUAUGUUACGCCGUUCGGAUCUGCACUU", "log2 enrichment": 0.665}
{"Strand": "UGGCCCUAGUGGCAUGCGGGGAGGAAGAGGUGGCCUCAUGGAUCGUGGUGGUCCCGGUGGAAUGUUCAGAGGUGGCCGUGGUGGAGACAG", "log2 enrichment": 2.2}
{"Strand": "CAAGUCCUGUGCUACACAUCGUAUGUACCGAAUCGGGUUUGGGAAAGGGAAAGGGAAAGUAUUAUGUUACGCCGUUCGGAUCUGCACUUC", "log2 enrichment": 1.79}
{"Strand": "UCCUGUGCUACACAUCGUAUGUACCGAAUCGGGAAAAAAAGGGUUUUUGGGAAAAAGGGAAAGUAUUAUGUUACGCCGUUCGGAUCUGCA", "log2 enrichment": -0.615}
{"Strand": "UCCUCAAGUCCUGUGCUACACAUCGUAUGUACCGAAUCGGGAGGAGGGGAGGAAAGUAUUAUGUUACGCCGUUCGGAUCUGCACUUCCAG", "log2 enrichment": -0.683}
{"Strand": "AGUCCUGUGCUACACAUCGUAUGUACCGAAUCAAACCCCCAAAUUUAAACCCCCAAAAAAGUAUUAUGUUACGCCGUUCGGAUCUGCACU", "log2 enrichment": -1.1}
{"Strand": "UCCUGUGCUACACAUCGUAUGUACCGAAUCAAAUUUUUUUAAACCCCCCCAAAUUUAAAAAAGUAUUAUGUUACGCCGUUCGGAUCUGCA", "log2 enrichment": -0.294}
{"data": "Series 2", "target": "ABI1, truncated, D143A, DHFR fusion (Arabidopsis thaliana)", "technique": "DHFR PCA, deep sequencing", "matrix": "yeast", "setting": "methotrexate growth selection, single substitutions", "with": "(+)-ABA 1.4 µM", "relative to": "wild-type fitted maximum", "direction": "higher = stronger binding", "starting sequence": "PYL1, truncated, DHFR fusion (Arabidopsis thaliana); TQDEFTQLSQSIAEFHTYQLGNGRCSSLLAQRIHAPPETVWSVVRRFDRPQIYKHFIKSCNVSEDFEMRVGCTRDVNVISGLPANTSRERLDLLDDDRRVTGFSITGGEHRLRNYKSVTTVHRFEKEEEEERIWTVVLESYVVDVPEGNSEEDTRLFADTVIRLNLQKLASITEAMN; partner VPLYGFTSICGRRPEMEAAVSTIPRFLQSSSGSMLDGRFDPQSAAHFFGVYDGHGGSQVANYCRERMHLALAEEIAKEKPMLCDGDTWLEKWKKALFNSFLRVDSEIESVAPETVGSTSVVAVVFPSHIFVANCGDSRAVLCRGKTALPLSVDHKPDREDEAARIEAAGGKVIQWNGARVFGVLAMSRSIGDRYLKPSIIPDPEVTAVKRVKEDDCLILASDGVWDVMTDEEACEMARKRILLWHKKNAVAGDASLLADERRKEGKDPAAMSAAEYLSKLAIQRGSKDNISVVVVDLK"}
{"Change": "D48V", "relative binding score": "-4.54%"}
{"Change": "G107P", "relative binding score": "-6.45%"}
{"Change": "K126C", "relative binding score": "76.6%"}
{"Change": "S59L", "relative binding score": "5.66%"}
{"Change": "R123M", "relative binding score": "33.5%"}
{"Change": "N165I", "relative binding score": "6.73%"}
{"Change": "L94T", "relative binding score": "5.21%"}
{"Change": "T101F", "relative binding score": "77.7%"}
{"Change": "A84R", "relative binding score": "0.647%"}
{"Change": "E4C", "relative binding score": "46.7%"}
{"Change": "D65A", "relative binding score": "29.2%"}
{"Change": "H110I", "relative binding score": "-2.99%"}
{"Change": "F5D", "relative binding score": "21%"}
{"Change": "L164C", "relative binding score": "71.4%"}
{"Change": "E129S", "relative binding score": "64.9%"}
{"data": "Series 3", "target": "CCNB2, cyclin fold, Cln2 fusion (human)", "technique": "yeast growth competition, sequencing", "matrix": "yeast", "setting": "weak parent motif", "relative to": "not given", "direction": "higher = stronger binding", "starting sequence": "HASPIN docking peptide (human); ASLRSVLFGLMNS"}
{"Change": "ASLRSVLFALMNS [G9A]", "normalised enrichment score": 0.678}
{"Change": "AALRSVLFGLMNS [S2A]", "normalised enrichment score": 0.229}
{"Change": "ASLRSVAFGLMNS [L7A]", "normalised enrichment score": 0.109}
{"Change": "ASLRSVLAGLMNS [F8A]", "normalised enrichment score": -0.299}
{"Change": "ASARSVLFGLMNS [L3A]", "normalised enrichment score": 0.0868}
{"Change": "ASLRSVLFGLMAS [N12A]", "normalised enrichment score": 0.85}
{"data": "Series 4", "target": "Interferon regulatory factor 7, full length, phosphomimetic (IRF7, Homo sapiens, UniProt Q92985, residues 1-503, S101K/S471D/S472D/S475D/S476D/S477D/S483D/S484D/S487D)", "technique": "protein-binding microarray", "form": "double-stranded DNA, one strand shown", "matrix": "in vitro", "concentration": "250 nM", "setting": "60-bp whole probe", "with": "salmon DNA 0.4 mg/ml", "relative to": "random background probes", "direction": "higher = stronger binding", "shared flanks, not repeated": "GCCTAGCAC … GTCTTGATTCGCTTGACGCTGCTG", "Target sequence (chain)": "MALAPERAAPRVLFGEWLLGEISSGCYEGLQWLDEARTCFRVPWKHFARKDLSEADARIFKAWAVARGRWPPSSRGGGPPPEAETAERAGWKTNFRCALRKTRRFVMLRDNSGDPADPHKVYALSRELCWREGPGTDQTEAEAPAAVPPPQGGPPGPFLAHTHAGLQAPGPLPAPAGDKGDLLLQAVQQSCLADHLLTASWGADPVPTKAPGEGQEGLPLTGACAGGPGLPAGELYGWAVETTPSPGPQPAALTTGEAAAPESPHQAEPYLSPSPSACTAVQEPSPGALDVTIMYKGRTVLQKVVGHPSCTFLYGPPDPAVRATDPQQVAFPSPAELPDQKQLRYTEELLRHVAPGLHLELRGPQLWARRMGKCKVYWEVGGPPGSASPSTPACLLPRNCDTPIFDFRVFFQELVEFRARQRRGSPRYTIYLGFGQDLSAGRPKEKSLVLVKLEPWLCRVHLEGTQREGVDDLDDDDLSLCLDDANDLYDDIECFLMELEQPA"}
{"Strand": "TTAGAACTGGGGACTGGAATAGTGCTA", "log fluorescence [z-score]": -0.389}
{"Strand": "TTTTTTTTTTCCCTGAAAAAGTGCTAG", "log fluorescence [z-score]": 1.88}
{"Strand": "GACGATTTCAGTATCGAGAGGTGCTAG", "log fluorescence [z-score]": 0.122}
{"Strand": "AATGAGGCACTGAGAGCAGAGTGCTAG", "log fluorescence [z-score]": -1.06}
{"Strand": "TTAGATTTCAGTTTGGATTAGTGCTAG", "log fluorescence [z-score]": 1.28}
{"Strand": "GACGATTTCAGACTGGCGACGTGCTAG", "log fluorescence [z-score]": 0.00415}
{"Strand": "TTAGATCTCAGACTAGATTAGTGCTAG", "log fluorescence [z-score]": -0.154}
{"Strand": "TTAGGACTGGGGTTTCGGTGAGTGCTA", "log fluorescence [z-score]": 0.692}
{"Strand": "CCTTTTTTGTTGTTTTTTGGGTGCTAG", "log fluorescence [z-score]": 1.49}
{"Strand": "TTATGTTTCGGTCTCGGTTAGTGCTAG", "log fluorescence [z-score]": 4.87}
{"Strand": "CACGAACTGAGTCTCGAGACGTGCTAG", "log fluorescence [z-score]": 0.351}
{"Strand": "AGAGCTATCACTATTCTAGGGTGCTAG", "log fluorescence [z-score]": -0.678}
{"Strand": "GACGGACTGCTTATCCGGACGTGCTAG", "log fluorescence [z-score]": -0.128}
{"Strand": "ACAGGACAGTCCCATCTACCGTGCTAG", "log fluorescence [z-score]": -0.404}
{"Strand": "TTAGGTTCCCTATTCCTTTAGTGCTAG", "log fluorescence [z-score]": 2.24}
{"Strand": "TTAGGTATCCTTATCTTTTAGTGCTAG", "log fluorescence [z-score]": 0.472}
{"Strand": "GACGGTCTCGAACTGGGGACGTGCTAG", "log fluorescence [z-score]": -0.0235}
{"Strand": "ACCTAATTCACTATTACCAAGTGCTAG", "log fluorescence [z-score]": 0.789}
{"Strand": "CCCGCTTTTTTTTTTTTTTTGTGCTAG", "log fluorescence [z-score]": 0.569}
{"Strand": "GATAATTTTTTTCTAAGTAAGTGCTAG", "log fluorescence [z-score]": 0.216}
{"Strand": "TGGGAGCTCAGGAATCCCACGTGCTAG", "log fluorescence [z-score]": -0.563}
{"data": "Series 5", "target": "Histone acetyltransferase KAT6A, winged helix 2, GST fusion (KAT6A, Homo sapiens, UniProt Q92794, residues 85-181)", "technique": "protein binding microarray", "form": "double-stranded DNA, one strand shown", "matrix": "in vitro", "concentration": "not given", "setting": "8-mer, flanks averaged, mean of 2 arrays, mostly near background", "relative to": "not given", "direction": "higher = stronger binding", "Construct (chain)": "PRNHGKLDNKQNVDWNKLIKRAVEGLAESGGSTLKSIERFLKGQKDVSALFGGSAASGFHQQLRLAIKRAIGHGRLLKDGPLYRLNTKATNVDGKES"}
{"Strand": "GCGAGGAC", "E-score": 0.0179}
{"Strand": "CTTCTATA", "E-score": -0.075}
{"Strand": "ATCGGCGA", "E-score": 0.1}
{"Strand": "CCGAATCC", "E-score": 0.125}
{"Strand": "CCTAGCCA", "E-score": -0.0168}
{"Strand": "AATGCAAC", "E-score": -0.02}
{"Strand": "ATCGAATA", "E-score": -0.0866}
{"Strand": "AATCATAT", "E-score": -0.00266}
{"Strand": "AGATTCTA", "E-score": 0.0273}
{"Strand": "AGTCGACG", "E-score": 0.163}
{"Strand": "CGAACACG", "E-score": 0.093}
{"Strand": "TCGTTAAA", "E-score": -0.0441}
{"Strand": "ATTAAGGG", "E-score": -0.039}
{"Strand": "CCATTGAA", "E-score": -0.0468}
{"Strand": "ATCGTCAT", "E-score": -0.0328}
{"Strand": "AACGACAG", "E-score": -0.0393}
{"Strand": "CGACTTCA", "E-score": -0.0282}
{"Strand": "AGTAGGTC", "E-score": -0.113}
{"Strand": "GTCAGCCA", "E-score": -0.0612}
{"Strand": "AATCGCCC", "E-score": -0.071}
{"Strand": "GGCCGACC", "E-score": -0.0008}
